Published values pooled from the literature.
Each numbered part is a random draw from the data of one study; scales do not carry over between parts. Changes are numbered by the printed parent chain.

Block 1
Target: Ras GTPase-activating protein-binding protein 1, full length (G3BP1, Homo sapiens, UniProt Q13283)
UniProt Q13283, sequence (whole entry, looked up): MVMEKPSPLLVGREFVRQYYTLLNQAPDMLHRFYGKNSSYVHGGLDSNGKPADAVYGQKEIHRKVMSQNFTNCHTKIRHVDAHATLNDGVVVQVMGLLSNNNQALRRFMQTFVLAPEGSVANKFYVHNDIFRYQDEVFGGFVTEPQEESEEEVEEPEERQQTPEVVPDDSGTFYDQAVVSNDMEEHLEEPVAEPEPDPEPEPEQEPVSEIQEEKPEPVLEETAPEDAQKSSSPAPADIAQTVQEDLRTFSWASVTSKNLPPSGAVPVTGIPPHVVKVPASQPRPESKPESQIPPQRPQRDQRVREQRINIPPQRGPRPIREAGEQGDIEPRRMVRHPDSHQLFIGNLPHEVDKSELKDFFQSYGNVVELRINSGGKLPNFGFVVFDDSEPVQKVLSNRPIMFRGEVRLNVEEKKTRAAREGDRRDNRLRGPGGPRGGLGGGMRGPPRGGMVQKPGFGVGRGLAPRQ
Method: RNA Bind-n-Seq
Molecule type: RNA
Matrix: in vitro
Tested at: 200 nM
Setting: whole 134-nt RNA, ends assumed
Added: 150 mM KCl
Baseline: input library
Direction: higher = stronger binding
| Oligonucleotide | log2 enrichment |
| --- | --- |
| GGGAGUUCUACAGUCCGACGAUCGCGGACCGAGAAAGUCGUUACGAGGAAGAAGAAGAACAAAGUCGAAGUAUGAGCCGGAAGAGGAAGGCAUCUGUGCACAGUUCGGGCCGUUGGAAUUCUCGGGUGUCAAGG | 0.515 |
| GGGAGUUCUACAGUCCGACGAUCACCAUGCAGGUGGGCAUCUUUGGGAAGUGGGGCAAGGGGGGGAUAGGGAGGGGGGUAACACUAUGGGAACAGGUGGUCCCAGGUCGUUUCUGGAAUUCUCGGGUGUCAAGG | 1.16 |
| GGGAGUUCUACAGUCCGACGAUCCAAGUCCUGUGCUACACAUCGUAUGUACCGAAUCGGGGUUGGGGUUGGGGUUGGGGAAAGUAUUAUGUUACGCCGUUCGGAUCUGCACUUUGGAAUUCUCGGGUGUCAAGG | 0.766 |
| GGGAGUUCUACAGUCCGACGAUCCCUCAAGUCCUGUGCUACACAUCGUAUGUACCGAAUCGGAAGGGAAGGGAAGGAAAGUAUUAUGUUACGCCGUUCGGAUCUGCACUUCCAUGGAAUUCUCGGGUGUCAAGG | -0.499 |
| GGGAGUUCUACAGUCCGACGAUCGCAGGAAGUAAAAACAAAUGGAAAUGCUUCGGAUAGUUGCAGGGGUGGGGGUUGCUAAGGAAAGGGUGGGAUGGGAGUGGGUAAAGAGUUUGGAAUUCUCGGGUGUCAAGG | 0.748 |
| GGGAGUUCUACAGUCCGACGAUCGCGGGAAGUAAAAACAAAUGGAAAUGCUUCGGAUAGUGGCAGGGGUGGGGGUUGCUAAGGAAAGGGUGGGAUGGGAGUGGGUAAAGAGUUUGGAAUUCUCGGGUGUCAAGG | 1.22 |
| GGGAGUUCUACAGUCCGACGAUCCCUGUGCUACACAUCGUAUGUACCGAAUCGGGCCCCCCGGGGCCCCCCGGGCCCCCCGGGGAAAGUAUUAUGUUACGCCGUUCGGAUCUGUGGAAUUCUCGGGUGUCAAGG | -0.848 |
| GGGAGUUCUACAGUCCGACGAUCCCUCAAGUCCUGUGCUACACAUCGUAUGUACCGAAUCGGUUGGGUUGGUUGGAAAGUAUUAUGUUACGCCGUUCGGAUCUGCACUUCCAGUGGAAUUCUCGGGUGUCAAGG | 0.18 |
| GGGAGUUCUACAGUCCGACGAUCGUCCUGUGCUACACAUCGUAUGUACCGAAUCAAAUUUUUAAAUUUUUUUAAAUUUAAAAAAGUAUUAUGUUACGCCGUUCGGAUCUGCACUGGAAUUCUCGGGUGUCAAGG | -1.62 |

Block 2
Target: Histone acetyltransferase KAT6A, both winged helices, GST fusion (KAT6A, Homo sapiens, UniProt Q92794, residues 1-181)
Method: protein binding microarray
Molecule type: double-stranded DNA, one strand shown
Matrix: in vitro
Tested at: not given
Setting: 8-mer, flanks averaged, mean of 2 arrays, mostly near background
Baseline: not given
Direction: higher = stronger binding
Residues (chain): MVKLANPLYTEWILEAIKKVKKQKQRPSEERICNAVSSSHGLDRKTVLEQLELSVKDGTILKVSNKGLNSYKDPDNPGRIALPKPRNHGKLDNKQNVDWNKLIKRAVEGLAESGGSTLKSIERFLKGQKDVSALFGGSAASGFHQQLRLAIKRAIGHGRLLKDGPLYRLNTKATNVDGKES
| Oligonucleotide | E-score |
| --- | --- |
| AACGACAA | 0.134 |
| CGGCCACC | 0.196 |
| AAGCCCAC | -0.08 |
| ACGGCTAG | 0.281 |
| AGACCTTC | 0.00817 |
| AGCTTAAC | -0.0548 |
| AGTGGCTG | -0.0777 |
| GCGTATGA | 0.204 |
| CTTACAGA | -0.0647 |
| AGCATCAC | -0.134 |
| AAGGACGT | -0.181 |
| AGACCCCT | -0.283 |
| AAATTCGA | -0.183 |
| AGAAAAGA | -0.0847 |
| AGCAGATG | -0.3 |
| ACACCAGT | -0.179 |
| GCTGTGCA | -0.0225 |

Block 3
Target: CCND2, cyclin fold, Cln2 fusion (human)
Method: yeast growth competition, sequencing
Matrix: yeast
Setting: weak parent motif
Baseline: not given
Direction: higher = stronger binding
Starting sequence: CDT1 docking peptide (human); PPARRRLRLSVDE; partner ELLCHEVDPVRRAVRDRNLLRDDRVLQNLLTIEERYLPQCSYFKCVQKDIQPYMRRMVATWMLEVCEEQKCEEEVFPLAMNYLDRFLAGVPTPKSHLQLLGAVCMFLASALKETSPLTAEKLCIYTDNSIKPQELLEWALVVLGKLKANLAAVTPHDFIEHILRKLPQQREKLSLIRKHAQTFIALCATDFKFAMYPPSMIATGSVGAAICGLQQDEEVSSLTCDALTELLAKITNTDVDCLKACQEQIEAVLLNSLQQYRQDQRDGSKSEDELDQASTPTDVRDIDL
| Variant | normalised enrichment score |
| --- | --- |
| PPARRALRLSVDE [R6A] | 0.254 |
| PPARRRLRFSVDE [L9F] | 0.458 |
| APARRRLRLSVDE [P1A] | 0.297 |
| PPARRRLRLSADE [V11A] | 0.262 |
| PPARARARLSVDE [R5A L7A] | 0.0809 |
| PPAARRLRLSVDE [R4A] | 0.268 |
| PPARRRLRLSVAE [D12A] | 0.845 |
| PPARKRLRLSVDE [R5K] | 0.15 |
| PAARRRLRLSVDE [P2A] | 0.309 |

Block 4
Target: BATF, bZIP domain (human)
Method: DHFR protein complementation
Matrix: yeast
Setting: single substitutions, most at no-binding floor
Baseline: wild-type JUN-FOS pair
Direction: higher = stronger binding
Starting sequence: JUN, bZIP domain (human); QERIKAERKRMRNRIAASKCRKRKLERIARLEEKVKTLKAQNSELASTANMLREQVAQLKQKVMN; partner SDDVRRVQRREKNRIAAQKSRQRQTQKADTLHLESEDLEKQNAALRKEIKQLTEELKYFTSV
| Variant | binding fitness [natural log] |
| --- | --- |
| R53V | -0.555 |
| E54V | -0.161 |
| E33A | -0.0459 |
| K34C | -0.156 |
| S47R | 0.0572 |
| K39I | -0.311 |
| Q41C | -1.51 |
| L45D | -1.19 |
| T37R | 0.0475 |
| Q55T | -0.135 |
| E33F | -0.127 |
| N42S | -0.456 |
| E44M | -0.0322 |
| E54G | 0.0232 |
| R53F | -0.691 |
| K34H | 0.053 |
| T37K | 0.0494 |
| V56Q | -0.965 |
| R53P | -1.12 |
| E33D | -0.0682 |

Block 5
Target: ABI1, truncated, D143A, DHFR fusion (Arabidopsis thaliana)
Method: DHFR PCA, deep sequencing
Matrix: yeast
Setting: methotrexate growth selection, single substitutions
Added: (+)-ABA 1.4 µM
Baseline: wild-type fitted maximum
Direction: higher = stronger binding
Starting sequence: PYL1, truncated, DHFR fusion (Arabidopsis thaliana); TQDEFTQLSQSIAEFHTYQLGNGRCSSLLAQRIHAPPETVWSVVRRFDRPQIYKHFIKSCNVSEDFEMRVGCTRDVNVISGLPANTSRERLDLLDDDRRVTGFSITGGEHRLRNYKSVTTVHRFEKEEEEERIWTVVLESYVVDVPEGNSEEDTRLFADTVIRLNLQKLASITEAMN
| Variant | relative binding score [%] |
| --- | --- |
| E147M | 29 |
| H34F | 34.2 |
| R111M | 20.8 |
| V145A | -13.1 |
| T86W | 96.3 |
| E64Y | 19 |
| E89S | 3.35 |
| T101A | 21.6 |
| V43S | -6.74 |
| S27Y | 14.6 |
| L138H | 13.8 |
| D92C | -13.7 |
| V161I | 90.9 |
| F66R | 21.8 |
| H34E | 46.3 |
| D159N | 46.5 |
| D159Y | 1.68 |

Single results of other studies
| Molecule | target | assay | test system | conditions | scale | endpoint | value |
| --- | --- | --- | --- | --- | --- | --- | --- |
| PhoQ, residues 284 288 289 292 302 303 ASSHFY | PhoP, residues 12 14 15 18 19 IQFRS (Escherichia coli, UniProt P23836) | Sort-seq, item: YFP reporter | E. coli | PhoQ-PhoP variant library, added: 10 µM Mg2+ | baseline: high Mg2+ state, higher = stronger signaling | fold induction | 14.7 |

Repeated from above (block 2):
| Oligonucleotide | E-score |
| --- | --- |
| ACGGCTAG | 0.281 |
| AGACCTTC | 0.00817 |
| AGCTTAAC | -0.0548 |
| AGTGGCTG | -0.0777 |
| GCGTATGA | 0.204 |
| CTTACAGA | -0.0647 |
